Experimental data gathered from unrelated publications.
Numbered parts are unrelated; each lists some results of a single study.
UniProt P35968, sequence (whole entry, looked up): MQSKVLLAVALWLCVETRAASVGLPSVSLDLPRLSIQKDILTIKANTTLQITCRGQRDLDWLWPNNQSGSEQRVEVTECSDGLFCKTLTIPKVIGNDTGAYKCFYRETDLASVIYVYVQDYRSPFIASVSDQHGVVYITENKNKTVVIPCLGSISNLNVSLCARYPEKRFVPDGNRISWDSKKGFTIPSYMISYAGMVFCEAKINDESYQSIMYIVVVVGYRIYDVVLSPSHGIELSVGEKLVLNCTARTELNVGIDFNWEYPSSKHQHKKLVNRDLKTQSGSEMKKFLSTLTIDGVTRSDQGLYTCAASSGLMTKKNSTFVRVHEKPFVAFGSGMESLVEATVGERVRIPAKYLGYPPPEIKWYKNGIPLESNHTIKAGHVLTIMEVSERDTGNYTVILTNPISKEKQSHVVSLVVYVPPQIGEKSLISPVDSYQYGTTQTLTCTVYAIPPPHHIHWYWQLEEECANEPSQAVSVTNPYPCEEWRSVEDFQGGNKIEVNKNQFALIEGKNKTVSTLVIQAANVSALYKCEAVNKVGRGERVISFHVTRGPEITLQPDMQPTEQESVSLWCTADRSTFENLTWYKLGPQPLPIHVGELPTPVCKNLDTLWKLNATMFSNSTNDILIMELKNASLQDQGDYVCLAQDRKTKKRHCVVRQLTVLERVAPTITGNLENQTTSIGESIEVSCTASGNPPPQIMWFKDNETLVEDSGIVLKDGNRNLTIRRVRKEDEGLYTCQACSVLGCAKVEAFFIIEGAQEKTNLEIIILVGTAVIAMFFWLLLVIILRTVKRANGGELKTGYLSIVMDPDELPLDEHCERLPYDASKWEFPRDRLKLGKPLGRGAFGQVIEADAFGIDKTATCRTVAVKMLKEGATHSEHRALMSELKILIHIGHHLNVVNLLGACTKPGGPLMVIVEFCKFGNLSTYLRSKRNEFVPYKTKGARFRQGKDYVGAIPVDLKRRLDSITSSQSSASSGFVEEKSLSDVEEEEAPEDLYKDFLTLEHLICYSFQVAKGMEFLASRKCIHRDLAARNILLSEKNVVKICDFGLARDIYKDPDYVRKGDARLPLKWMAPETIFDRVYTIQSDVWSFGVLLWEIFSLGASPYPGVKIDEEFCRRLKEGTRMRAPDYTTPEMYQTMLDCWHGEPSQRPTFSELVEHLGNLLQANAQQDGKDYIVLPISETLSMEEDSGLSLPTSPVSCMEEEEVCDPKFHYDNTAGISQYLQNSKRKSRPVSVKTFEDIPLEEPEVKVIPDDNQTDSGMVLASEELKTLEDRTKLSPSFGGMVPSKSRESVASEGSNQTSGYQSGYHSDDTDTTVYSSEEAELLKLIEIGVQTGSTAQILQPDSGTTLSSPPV
UniProt P32298, sequence (whole entry, looked up): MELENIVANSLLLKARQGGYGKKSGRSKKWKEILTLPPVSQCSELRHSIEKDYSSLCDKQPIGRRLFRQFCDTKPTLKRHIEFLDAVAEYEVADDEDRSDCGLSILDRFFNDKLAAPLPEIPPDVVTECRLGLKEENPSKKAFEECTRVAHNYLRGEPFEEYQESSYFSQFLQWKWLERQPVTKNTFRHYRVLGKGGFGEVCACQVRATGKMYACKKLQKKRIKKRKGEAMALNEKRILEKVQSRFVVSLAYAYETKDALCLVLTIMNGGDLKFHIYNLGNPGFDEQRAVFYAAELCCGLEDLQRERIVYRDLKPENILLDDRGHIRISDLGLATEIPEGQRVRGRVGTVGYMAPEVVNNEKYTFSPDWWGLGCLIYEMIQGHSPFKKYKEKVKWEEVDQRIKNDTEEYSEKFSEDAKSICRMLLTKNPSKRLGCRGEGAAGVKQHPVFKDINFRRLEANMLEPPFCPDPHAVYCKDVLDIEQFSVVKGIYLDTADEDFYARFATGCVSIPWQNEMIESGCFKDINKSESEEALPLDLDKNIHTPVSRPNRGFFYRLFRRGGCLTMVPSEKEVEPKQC
UniProt P19525, sequence (whole entry, looked up): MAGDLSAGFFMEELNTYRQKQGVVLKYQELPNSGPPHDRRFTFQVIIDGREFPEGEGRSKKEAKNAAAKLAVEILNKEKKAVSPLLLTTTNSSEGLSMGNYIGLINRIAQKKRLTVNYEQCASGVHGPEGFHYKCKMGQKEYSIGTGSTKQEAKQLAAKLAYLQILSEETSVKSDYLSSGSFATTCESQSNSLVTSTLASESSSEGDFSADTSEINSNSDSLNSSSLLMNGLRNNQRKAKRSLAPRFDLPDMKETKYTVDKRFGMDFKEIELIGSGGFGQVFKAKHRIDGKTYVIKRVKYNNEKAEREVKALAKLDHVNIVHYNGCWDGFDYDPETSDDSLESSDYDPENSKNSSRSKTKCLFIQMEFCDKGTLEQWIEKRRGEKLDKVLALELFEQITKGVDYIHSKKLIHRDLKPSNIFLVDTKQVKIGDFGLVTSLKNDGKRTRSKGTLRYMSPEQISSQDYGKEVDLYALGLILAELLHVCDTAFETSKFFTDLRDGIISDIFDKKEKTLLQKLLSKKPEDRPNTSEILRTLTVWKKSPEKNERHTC
UniProt Q16539, sequence (whole entry, looked up): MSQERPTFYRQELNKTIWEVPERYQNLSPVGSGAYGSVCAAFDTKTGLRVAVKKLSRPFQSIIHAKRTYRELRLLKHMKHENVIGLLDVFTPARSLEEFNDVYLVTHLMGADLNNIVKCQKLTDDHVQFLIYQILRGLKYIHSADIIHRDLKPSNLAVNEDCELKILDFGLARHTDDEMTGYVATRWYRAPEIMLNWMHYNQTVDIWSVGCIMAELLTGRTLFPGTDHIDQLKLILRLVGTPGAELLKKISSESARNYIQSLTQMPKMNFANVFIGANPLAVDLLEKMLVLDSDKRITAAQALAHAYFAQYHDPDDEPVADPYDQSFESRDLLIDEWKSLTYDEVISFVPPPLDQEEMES
UniProt O75914, sequence (whole entry, looked up): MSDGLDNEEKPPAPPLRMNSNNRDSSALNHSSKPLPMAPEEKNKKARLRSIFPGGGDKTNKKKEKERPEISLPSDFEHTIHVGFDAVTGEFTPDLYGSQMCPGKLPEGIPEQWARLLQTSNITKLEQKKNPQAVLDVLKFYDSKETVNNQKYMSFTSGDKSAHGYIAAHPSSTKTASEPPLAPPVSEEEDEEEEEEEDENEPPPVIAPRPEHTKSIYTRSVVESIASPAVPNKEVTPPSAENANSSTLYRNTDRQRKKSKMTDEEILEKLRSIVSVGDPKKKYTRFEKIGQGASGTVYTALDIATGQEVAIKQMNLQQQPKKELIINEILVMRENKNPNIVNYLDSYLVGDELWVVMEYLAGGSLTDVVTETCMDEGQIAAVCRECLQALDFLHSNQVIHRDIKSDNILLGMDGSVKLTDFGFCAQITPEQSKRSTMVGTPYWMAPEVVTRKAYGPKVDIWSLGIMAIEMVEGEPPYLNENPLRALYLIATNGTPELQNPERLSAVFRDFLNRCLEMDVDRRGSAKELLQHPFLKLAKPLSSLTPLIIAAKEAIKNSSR
UniProt Q14164, sequence (whole entry, looked up): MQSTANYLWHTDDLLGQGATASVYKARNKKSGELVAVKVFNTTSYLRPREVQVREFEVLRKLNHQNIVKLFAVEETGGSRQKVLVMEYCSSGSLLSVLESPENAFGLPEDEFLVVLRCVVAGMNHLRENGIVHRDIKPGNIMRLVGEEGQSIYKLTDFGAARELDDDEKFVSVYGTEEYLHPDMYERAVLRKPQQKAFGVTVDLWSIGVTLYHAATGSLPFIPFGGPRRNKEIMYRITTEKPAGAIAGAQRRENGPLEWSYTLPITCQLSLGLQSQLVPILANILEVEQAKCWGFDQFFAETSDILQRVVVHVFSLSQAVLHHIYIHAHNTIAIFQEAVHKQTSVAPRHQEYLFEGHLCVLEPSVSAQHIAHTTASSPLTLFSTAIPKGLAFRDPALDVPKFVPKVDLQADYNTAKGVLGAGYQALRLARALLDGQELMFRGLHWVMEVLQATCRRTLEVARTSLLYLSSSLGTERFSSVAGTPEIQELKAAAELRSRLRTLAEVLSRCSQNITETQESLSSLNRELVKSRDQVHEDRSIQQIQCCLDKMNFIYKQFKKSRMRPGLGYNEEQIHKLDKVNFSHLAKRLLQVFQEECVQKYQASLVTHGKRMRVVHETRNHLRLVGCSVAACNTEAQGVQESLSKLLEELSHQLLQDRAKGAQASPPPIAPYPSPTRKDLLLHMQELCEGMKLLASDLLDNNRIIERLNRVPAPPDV
UniProt P27037, sequence (whole entry, looked up): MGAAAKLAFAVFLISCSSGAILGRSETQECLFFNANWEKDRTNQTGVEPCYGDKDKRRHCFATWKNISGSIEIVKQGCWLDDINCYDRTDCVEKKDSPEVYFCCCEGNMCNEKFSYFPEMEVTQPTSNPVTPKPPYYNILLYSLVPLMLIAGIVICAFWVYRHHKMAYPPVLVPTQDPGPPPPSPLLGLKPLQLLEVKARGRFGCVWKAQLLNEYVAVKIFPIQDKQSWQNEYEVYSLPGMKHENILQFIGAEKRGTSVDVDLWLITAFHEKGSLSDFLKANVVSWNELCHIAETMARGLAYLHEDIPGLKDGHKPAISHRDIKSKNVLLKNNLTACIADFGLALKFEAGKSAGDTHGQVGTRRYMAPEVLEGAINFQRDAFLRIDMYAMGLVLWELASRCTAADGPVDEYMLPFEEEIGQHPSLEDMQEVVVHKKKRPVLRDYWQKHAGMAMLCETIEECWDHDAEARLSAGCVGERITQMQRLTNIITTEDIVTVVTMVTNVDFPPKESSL
UniProt P28482, sequence (whole entry, looked up): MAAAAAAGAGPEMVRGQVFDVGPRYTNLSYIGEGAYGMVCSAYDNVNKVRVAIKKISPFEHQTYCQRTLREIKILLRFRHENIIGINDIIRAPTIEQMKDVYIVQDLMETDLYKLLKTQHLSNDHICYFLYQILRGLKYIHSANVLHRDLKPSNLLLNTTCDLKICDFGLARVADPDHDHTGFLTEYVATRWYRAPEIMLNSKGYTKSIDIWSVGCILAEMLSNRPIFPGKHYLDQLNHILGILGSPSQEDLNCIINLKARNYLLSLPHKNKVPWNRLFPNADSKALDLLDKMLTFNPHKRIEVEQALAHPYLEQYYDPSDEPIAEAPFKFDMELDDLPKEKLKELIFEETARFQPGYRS

Study 1
Compound: O=C(NC[C@@H]1[C@H]2CN(C(=O)OCc3cc(C(F)(F)F)cc(C(F)(F)F)c3)C[C@@H]12)c1ccc2[nH]nnc2c1
Observed: cell-free assay
Method: competition with immobilised ligand
Tested at: 1 µM
target | remaining binding [%]
EGFR (Homo sapiens, UniProt P00533, del747-752/P753S) | 83
DAPK3 (Homo sapiens, UniProt O43293) | 94
EGFR (Homo sapiens, UniProt P00533, A750P/del747-749) | 89
MAPKAPK5 (Homo sapiens, UniProt Q8IW41) | 86
IKBKE (Homo sapiens, UniProt Q14164) | 100
Tyrosine-protein kinase ABL1, phosphorylated (ABL1, Homo sapiens, UniProt P00519, Y253F) | 95
PDGFRB (Homo sapiens, UniProt P09619) | 90
FLT3 (Homo sapiens, UniProt P36888, D835Y) | 100
FLT3 (Homo sapiens, UniProt P36888, K663Q) | 98
ACVR2A (Homo sapiens, UniProt P27037) | 92
CDK14 (Homo sapiens, UniProt O94921) | 96
EIF2AK2 (Homo sapiens, UniProt P19525) | 45
KDR (Homo sapiens, UniProt P35968) | 96

Study 2
Cell line: HaCaT
Tested at: 100 µM
Time: 18 h
Compound | viability [%]
Nc1ncnc2c1ncn2[C@@H]1O[C@H](CO)[C@@H](O)[C@H]1O | 88.3
CCOC(=O)C1=C(COCCN)NC(C)=C(C(=O)OC)C1c1ccccc1Cl (stereo not shown) | 18.1
C[C@H]1CC[C@@]2(O)C(C)(C)[C@@H]3CC[C@@]2(C)[C@H]1C3 | 39.8
CCOc1ccc2ccccc2c1C(=O)N[C@@H]1C(=O)N2[C@@H]1SC(C)(C)[C@@H]2C(=O)O | 100
COc1cc(NS(C)(=O)=O)ccc1Nc1c2ccccc2nc2ccccc12 | 27.3
NNC(=O)c1ccncc1 | 110
O=C1OC2(c3ccc(O)cc3Oc3cc(O)ccc32)c2ccccc21 | 189
C[C@@H](NCCCc1cccc(C(F)(F)F)c1)c1cccc2ccccc12 | 18.8
CC12CC3CC(C)(C1)CC(N)(C3)C2 | 100

Study 3
SMILES: CC(C)n1cnc(-c2ccc(F)cc2)c1-c1ncc(C(=O)Nc2ccc(N3CCN(C)CC3)cc2)[nH]1
Method: phase 2a trial
Host: idiopathic pulmonary fibrosis patients
dose | setting | supraventricular extrasystole patients [%]
60 mg once daily | grade 2 emergent event | 0
all arms | grade 2 emergent event | 0
60 mg once daily | grade 4 emergent event | 0
60 mg once daily | grade 3 emergent event | 0
all arms | grade 4 emergent event | 0
all arms | grade 5 emergent event | 0
30 mg once daily | grade 3 emergent event | 0

Study 4
Structure (SMILES): Nc1cccc(-c2cc3c(Oc4cccc(O)c4)ncnc3[nH]2)c1
Observed: enzyme activity
Mode: inhibitor
Tested at: 0.5 µM
Relative to: control
target | remaining activity [%]
MAPK14 (Homo sapiens, UniProt Q16539) | 98.1
Cyclin-dependent kinase 1, with cyclin A (CDK1, Homo sapiens, UniProt P06493) | 99.3
RPS6KA4 (Homo sapiens, UniProt O75676) | 103
CLK3 (Homo sapiens, UniProt P49761) | 74
CAMK4 (Homo sapiens, UniProt Q16566) | 94.9
MARK4 (Homo sapiens, UniProt Q96L34) | 68.8
KDR (Homo sapiens, UniProt P35968) | 6.7
PAK3 (Homo sapiens, UniProt O75914) | 79.8
MINK1 (Homo sapiens, UniProt Q8N4C8) | 34.7
CLK4 (Homo sapiens, UniProt Q9HAZ1) | 104
PLK3 (Homo sapiens, UniProt Q9H4B4) | 95.7
MAPK1 (Homo sapiens, UniProt P28482) | 114
GRK4 (Homo sapiens, UniProt P32298) | 94.7
MARK2 (Homo sapiens, UniProt Q7KZI7) | 79
MAP2K1 (Homo sapiens, UniProt Q02750) | 76.3
MAPK11 (Homo sapiens, UniProt Q15759) | 108
PRKG2 (Homo sapiens, UniProt Q13237) | 108
